Measurements collected from several papers.
Lines come from different studies, so protocols differ. ± gives the spread as reported.
Proteasome subunit alpha type-2/Proteasome subunit alpha type-6 20S proteasome: Proteasome subunit alpha type-2/Proteasome subunit alpha type-6, 20S proteasome (Homo sapiens, UniProt P25787+P60900)
Sequence of UniProt P60900 (whole entry, looked up): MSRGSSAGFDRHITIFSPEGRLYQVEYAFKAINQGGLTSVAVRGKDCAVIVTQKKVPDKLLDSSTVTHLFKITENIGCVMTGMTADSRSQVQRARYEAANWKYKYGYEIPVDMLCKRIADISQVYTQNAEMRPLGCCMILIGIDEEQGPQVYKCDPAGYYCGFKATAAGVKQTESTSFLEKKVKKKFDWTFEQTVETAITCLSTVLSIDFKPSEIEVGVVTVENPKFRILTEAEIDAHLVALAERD
Sequence of UniProt P25787 (whole entry, looked up): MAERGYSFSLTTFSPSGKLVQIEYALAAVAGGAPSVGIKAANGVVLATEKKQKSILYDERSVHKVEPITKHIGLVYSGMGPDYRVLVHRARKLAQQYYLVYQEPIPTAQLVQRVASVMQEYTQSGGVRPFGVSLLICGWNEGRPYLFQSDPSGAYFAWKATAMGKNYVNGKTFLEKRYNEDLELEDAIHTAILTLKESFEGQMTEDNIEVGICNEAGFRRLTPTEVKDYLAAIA
MMP9: Matrix metalloproteinase-9 (MMP9, Homo sapiens, UniProt P14780)
Sequence of UniProt P14780 (whole entry, looked up): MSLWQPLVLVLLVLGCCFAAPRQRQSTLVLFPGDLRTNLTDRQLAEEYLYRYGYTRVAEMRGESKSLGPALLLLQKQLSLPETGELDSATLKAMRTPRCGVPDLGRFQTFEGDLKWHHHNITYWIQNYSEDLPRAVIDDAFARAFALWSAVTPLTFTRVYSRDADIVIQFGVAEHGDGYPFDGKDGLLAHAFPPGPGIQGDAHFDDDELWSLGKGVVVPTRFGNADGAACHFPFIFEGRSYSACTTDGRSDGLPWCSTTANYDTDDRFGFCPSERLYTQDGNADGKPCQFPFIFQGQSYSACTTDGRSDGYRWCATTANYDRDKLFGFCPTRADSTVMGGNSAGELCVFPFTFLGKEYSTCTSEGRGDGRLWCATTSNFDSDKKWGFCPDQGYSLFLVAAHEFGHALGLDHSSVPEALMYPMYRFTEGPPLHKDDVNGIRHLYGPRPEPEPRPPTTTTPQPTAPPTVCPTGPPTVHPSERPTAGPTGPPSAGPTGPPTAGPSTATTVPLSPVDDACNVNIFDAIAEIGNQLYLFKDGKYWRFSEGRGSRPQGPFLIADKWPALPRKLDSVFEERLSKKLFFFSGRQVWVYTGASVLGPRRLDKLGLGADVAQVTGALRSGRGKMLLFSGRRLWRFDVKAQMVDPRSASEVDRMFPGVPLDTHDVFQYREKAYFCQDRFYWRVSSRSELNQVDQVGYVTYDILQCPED
PPO3: PPO3 (Agaricus bisporus, UniProt C7FF04)
Sequence of UniProt C7FF04 (whole entry, looked up): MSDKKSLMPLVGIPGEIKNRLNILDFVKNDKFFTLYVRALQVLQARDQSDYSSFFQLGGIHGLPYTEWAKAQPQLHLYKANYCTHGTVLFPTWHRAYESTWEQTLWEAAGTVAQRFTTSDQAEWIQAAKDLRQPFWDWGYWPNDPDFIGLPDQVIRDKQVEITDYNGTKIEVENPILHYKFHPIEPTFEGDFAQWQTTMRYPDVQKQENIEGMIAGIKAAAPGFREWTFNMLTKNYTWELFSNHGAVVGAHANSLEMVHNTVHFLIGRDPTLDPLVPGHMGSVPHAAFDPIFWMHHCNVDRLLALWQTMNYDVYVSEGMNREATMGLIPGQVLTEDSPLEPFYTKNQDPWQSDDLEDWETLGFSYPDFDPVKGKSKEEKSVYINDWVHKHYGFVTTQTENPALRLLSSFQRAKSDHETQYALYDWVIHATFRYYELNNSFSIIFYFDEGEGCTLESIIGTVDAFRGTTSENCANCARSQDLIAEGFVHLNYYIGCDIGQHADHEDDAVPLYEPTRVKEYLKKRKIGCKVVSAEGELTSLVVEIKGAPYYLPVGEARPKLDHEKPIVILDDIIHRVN
CES3: Carboxylesterase 3 (CES3, Homo sapiens, UniProt Q6UWW8)
Sequence of UniProt Q6UWW8 (whole entry, looked up): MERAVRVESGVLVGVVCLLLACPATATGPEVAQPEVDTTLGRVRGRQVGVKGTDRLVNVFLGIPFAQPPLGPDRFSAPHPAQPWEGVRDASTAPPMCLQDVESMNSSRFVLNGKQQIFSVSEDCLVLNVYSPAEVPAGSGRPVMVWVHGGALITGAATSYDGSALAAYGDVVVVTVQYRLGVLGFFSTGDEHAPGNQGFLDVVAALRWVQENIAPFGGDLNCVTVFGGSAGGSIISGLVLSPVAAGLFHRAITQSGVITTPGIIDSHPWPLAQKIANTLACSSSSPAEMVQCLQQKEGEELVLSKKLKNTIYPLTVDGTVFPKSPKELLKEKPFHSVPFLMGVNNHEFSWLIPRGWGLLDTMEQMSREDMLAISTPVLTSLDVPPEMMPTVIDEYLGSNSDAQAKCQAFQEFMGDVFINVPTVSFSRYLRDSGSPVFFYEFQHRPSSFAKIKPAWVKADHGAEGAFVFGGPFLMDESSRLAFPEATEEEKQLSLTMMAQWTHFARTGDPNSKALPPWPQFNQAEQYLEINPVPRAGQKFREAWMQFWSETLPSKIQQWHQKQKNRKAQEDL
T1: RNA repeat; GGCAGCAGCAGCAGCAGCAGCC
T2: dsDNA; GCGCCAATTGGCGC
T3: dsDNA, hairpin; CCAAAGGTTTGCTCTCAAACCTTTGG
T4: DNA hairpin, hairpin, TTTT loop; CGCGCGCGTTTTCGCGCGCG
T5: RNA repeat, CUG repeat (Homo sapiens); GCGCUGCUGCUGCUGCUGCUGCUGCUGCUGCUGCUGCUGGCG
Sequence of UniProt Q04828 (whole entry, looked up): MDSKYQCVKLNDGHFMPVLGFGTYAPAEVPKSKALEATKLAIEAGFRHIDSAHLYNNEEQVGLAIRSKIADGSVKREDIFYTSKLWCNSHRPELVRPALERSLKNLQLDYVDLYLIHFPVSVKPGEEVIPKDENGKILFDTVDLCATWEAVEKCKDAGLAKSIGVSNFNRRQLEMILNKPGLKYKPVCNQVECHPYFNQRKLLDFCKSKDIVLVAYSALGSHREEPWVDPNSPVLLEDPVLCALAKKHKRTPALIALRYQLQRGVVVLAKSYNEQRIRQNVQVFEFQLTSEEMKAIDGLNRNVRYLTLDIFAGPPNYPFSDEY
Sequence of UniProt Q8I5R7 (whole entry, looked up): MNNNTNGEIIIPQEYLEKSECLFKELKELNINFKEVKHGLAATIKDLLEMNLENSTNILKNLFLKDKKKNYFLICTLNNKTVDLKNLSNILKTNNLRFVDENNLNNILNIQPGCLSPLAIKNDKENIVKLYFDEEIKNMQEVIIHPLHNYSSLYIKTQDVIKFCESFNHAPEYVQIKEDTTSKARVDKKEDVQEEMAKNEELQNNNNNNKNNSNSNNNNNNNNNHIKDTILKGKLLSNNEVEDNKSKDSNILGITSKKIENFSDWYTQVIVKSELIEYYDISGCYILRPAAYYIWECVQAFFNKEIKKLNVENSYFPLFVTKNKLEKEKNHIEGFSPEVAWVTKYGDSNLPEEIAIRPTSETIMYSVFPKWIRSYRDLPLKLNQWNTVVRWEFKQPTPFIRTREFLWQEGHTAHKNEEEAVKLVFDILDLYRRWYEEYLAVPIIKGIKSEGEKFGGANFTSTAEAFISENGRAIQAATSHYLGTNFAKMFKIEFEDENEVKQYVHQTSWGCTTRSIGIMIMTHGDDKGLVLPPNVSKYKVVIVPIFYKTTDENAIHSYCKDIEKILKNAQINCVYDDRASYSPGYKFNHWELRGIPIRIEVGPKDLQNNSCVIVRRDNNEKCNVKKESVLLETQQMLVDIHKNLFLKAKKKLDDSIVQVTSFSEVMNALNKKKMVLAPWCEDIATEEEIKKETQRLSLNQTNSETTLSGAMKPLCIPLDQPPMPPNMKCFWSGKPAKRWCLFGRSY
Sequence of UniProt Q00194 (whole entry, looked up): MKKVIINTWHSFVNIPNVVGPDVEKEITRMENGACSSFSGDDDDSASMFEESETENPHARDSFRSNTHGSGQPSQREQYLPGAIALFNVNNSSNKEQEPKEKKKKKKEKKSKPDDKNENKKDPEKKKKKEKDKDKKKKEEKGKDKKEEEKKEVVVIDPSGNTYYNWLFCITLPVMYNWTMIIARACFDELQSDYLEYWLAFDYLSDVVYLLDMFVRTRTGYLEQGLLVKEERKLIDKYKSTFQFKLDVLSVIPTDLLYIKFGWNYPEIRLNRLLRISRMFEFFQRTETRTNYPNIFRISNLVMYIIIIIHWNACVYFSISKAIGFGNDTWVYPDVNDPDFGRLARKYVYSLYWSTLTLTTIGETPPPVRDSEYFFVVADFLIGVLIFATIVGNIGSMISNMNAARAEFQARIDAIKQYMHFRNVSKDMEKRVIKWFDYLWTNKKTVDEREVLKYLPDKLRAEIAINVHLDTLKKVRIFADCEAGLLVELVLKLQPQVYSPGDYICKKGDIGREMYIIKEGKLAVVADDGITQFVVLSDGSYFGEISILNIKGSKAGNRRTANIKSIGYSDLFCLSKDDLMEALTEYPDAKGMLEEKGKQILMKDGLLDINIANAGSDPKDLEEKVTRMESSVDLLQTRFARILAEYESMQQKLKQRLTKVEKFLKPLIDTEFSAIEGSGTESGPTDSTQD
Sequence of UniProt Q16222 (whole entry, looked up): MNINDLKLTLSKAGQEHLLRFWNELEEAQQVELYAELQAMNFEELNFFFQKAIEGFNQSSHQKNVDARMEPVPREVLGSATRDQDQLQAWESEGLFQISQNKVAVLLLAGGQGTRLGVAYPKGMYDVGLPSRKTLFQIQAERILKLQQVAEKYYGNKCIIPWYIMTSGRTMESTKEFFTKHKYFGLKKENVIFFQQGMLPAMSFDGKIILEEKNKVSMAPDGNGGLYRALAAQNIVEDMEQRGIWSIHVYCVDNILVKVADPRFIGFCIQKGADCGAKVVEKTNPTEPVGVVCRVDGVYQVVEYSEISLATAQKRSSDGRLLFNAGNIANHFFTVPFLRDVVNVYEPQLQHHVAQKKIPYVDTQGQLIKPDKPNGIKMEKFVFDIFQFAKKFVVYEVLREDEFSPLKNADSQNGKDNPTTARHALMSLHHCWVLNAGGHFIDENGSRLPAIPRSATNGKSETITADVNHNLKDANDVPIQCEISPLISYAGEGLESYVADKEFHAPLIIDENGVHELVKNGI
Sequence of UniProt P61981 (whole entry, looked up): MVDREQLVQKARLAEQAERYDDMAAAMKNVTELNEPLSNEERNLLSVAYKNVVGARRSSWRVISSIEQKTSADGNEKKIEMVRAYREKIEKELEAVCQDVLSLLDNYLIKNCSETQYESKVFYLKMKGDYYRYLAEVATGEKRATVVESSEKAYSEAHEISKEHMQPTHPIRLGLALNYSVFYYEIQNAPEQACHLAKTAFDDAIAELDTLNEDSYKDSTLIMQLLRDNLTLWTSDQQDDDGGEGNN

CC[C@H](C)[C@H](NC(=O)[C@H](CCCCN)NC(=O)[C@H](CCCCN)NC(=O)[C@@H](NC(=O)[C@H](CCC(=O)O)NC(=O)[C@H](CCC(=O)O)NC(=O)[C@H](CCC(=O)O)NC(=O)[C@H](CO)NC(=O)[C@H](CC(C)C)NC(=O)[C@H](CC(=O)O)NC(=O)[C@H](CC(C)C)NC(=O)CNC(=O)[C@H](C)NC(=O)[C@H](CC(C)C)NC(=O)[C@H](CO)NC(=O)CNC(=O)CNC(=O)CNC(=O)CCCC[C@@H]1SC[C@@H]2NC(=O)N[C@@H]21)C(C)C)C(=O)N[C@@H](CC(C)C)C(=O)N[C@@H](CC(=O)O)C(=O)N[C@@H](CCC(=O)O)C(=O)N[C@H](C(=O)N[C@H](C(=O)N[C@@H](CCCCN)C(=O)N[C@@H](CC(=O)O)C(=O)O)C(C)C)[C@@H](C)CC — Kd ratio (Fab B11 antibody (human); binding, biolayer interferometry; baseline: alanine mutant over wild type): 1.4
Cc1cc(N2CC[C@@](C#N)(C3(C)CC3)C2=O)cc(C(=O)NCc2cc(F)cc(-c3cnn(C)c3)c2)n1 — melting temperature (Proline--tRNA ligase (Plasmodium falciparum, UniProt Q8I5R7); thermal shift; added: L-proline and ATP 2 mM): 81.5 °C
O=C(CN1CCOCC1)N(c1ccc(F)cc1)c1ccc(F)cc1 — EC200 (Proteasome subunit alpha type-2/Proteasome subunit alpha type-6 20S proteasome; proteolysis, activator, fluorogenic peptide; purified 20S proteasome; added: Suc-LLVY-AMC, Z-LLE-AMC, Boc-LRR-AMC): > 30 µM
CC(C)C[C@H](NC(=O)[C@H](CO)NC(=O)[C@H](CC(C)C)NC(=O)[C@@H]1CCCN1C(=O)CNC(=O)[C@H](Cc1ccccc1)NC(=O)OCC1c2ccccc2-c2ccccc21)C(=O)N[C@@H](CCCNC(=N)N)C(=O)N[C@@H](CO)C(=O)N[C@@H](CCCCN)C(=O)O — hydrolysis product (MMP9; substrate, HPLC; 500 µM, 72 h, pH 7.5, 37 °C): 81%
C/C(=N\OCCN1CCCCC1)c1cccc(C(F)(F)F)c1 — σ1R-BiP interaction (Sigma non-opioid intracellular receptor 1, with BiP (SIGMAR1, Homo sapiens, UniProt Q99720); agonist, NanoBiT; HEK293; 10 µM, 16 h): increased
CN(C)CCCNC(=N)c1ccc(C(=N)NCCCN(C)C)cc1 — Kd (T1, RNA repeat; ITC; pH 7.0, 25 °C, NaCl 1 mM): 3.8 µM
CC1=C(/C=C/C(C)=C/C=C/C(C)=C/C=O)C(C)(C)CCC1 — Hill coefficient (Cyclic nucleotide-gated channel alpha-1 (CNGA1, Bos taurus, UniProt Q00194); ion current, inhibitor, inside-out patch clamp; +100 mV, added: cGMP 2 mM): 1.4
O=C(CCN1CCOCC1)N(c1ccc(F)cc1)c1ccc(F)cc1 — EC200 (Proteasome subunit alpha type-2/Proteasome subunit alpha type-6 20S proteasome; proteolysis, activator, fluorogenic peptide; purified 20S proteasome; added: Suc-LLVY-AMC, Z-LLE-AMC, Boc-LRR-AMC): > 30 µM
CC(C)C[C@H](NC(=O)[C@H](CC(N)=O)NC(=O)[C@H](CCC(=O)O)NC(=O)[C@@H](N)CS)C(=O)O — remaining activity (PPO3; enzyme activity, inhibitor; 12.5 µM): 90.5%
CC1CC(C)(C)N(C(=O)CN2C(=O)c3ccccc3C2=O)c2ccc(C(=O)N3CCN(C(=O)CCC4=[N+]5C(=Cc6ccc(-c7ccc[nH]7)n6[B-]5(F)F)C=C4)CC3)cc21 (stereo not shown) — dissociation rate constant (Mucolipin-1 (MCOLN1, Homo sapiens, UniProt Q9GZU1); BRET; HEK293T; 1.3 and 0.67 µM): 0.00333 ± 0.00167 s⁻¹
CCCCCCCC(=O)OC(C#N)c1ccc2cc(OC)ccc2c1 (racemic) — specific activity (CES3; substrate; 50 µM, pH 8, 37 °C, enzyme purity 3%): 3.5 pmol/min/µg
O=Cc1ccc(-n2ccnc2Br)nc1 — stabilization factor (14-3-3 protein gamma, with Pin1 peptide (YWHAG, Homo sapiens, UniProt P61981); fluorescence anisotropy; 100 µM; baseline: DMSO): 2.4 fold
O=c1ccn(C2OC(COP(=O)(O)OP(=O)(O)OP(=O)(O)O)C(O)C2O)c(=O)[nH]1 (stereo not shown) — binding (UAP1 (Homo sapiens, UniProt Q16222); surface plasmon resonance; concentration not given): no binding
COc1cc(F)c(C(C)C)cc1C1=C(CN2C(=O)O[C@H](c3cc(C(F)(F)F)cc(C(F)(F)F)c3)[C@@H]2C)CC(C)(C)CC1 — maximum inhibition (Cholesteryl ester transfer protein (Homo sapiens, UniProt P11597); enzyme activity; healthy male subjects, plasma; oral, 400 mg single dose; baseline: baseline): 83%
CC(C)C[C@H](NC(=O)[C@H](CC(N)=O)NC(=O)[C@H](CCCNC(=N)N)NC(=O)[C@@H](N)CS)C(=O)O — remaining activity (PPO3; enzyme activity, inhibitor; 200 µM): 3.69%
NC(=O)c1cccc(CN(Cc2ccc(Cl)c(Cl)c2)C(=O)NC(CN2CCCCC2)c2ccccc2)c1 (stereo not shown) — bias factor (Kappa-type opioid receptor (OPRK1, Homo sapiens, UniProt P41145); Gi signalling): 6.6
O=C(O)Cc1cccc(O)c1 — ΔG (p-hydroxyphenylacetate 3-hydroxylase, reductase component (C1-hpah, Acinetobacter baumannii, UniProt Q6Q271); ITC; pH 7): -6.07 ± 0.09 kcal/mol
C[n+]1c(C=Cc2ccc(O)c(C=Cc3sc4ccccc4[n+]3C)c2)sc2ccccc21 — binding (T2, dsDNA; fluorescence enhancement): binds weakly
CC(=O)Nc1ncc(CN2CC[C@H](Oc3cccc([18F])n3)C[C@@H]2C)s1 — total distribution volume (VT) (Protein O-GlcNAcase (OGA, Homo sapiens, UniProt O60502); PET two-tissue compartment model; human, thalamus; dose not given): 10.7 mL/cm³
O=C(c1cccc(-c2cc(NCCO)ncn2)c1)N1CCCC1c1ccccc1 (stereo not shown) — signal attenuation (DNA dC->dU-editing enzyme APOBEC-3B, C-terminal domain (Homo sapiens, UniProt Q9UH17); binding, 1H CPMG NMR; 20 µM protein): 41.7 ± 1.1%
COc1ccccc1N1CCCN(c2nc3c(c(=O)[nH]2)CCCC3)CC1 — IC50 ratio (Poly [ADP-ribose] polymerase tankyrase-1 (TNKS, Homo sapiens, UniProt O95271); auto-PARylation, inhibitor, ELISA; baseline: compound over RK-287107): 428 fold
CC(C)n1c(-c2ccc(-c3ccc(C(=N)N)cc3)s2)nc2cc3nc(-c4ccc(-c5ccc(C(=N)N)cc5)s4)n(C(C)C)c3cc21 — Kd (T3, dsDNA, hairpin; SPR; pH 7.4, 25 °C, Na+ 100 mM, mass transfer limited): 0.002 µM
C=Cc1c(C)c2cc3nc(c4c5[nH]c(cc6nc(cc1[nH]2)C(C)=C6CC)c(C)c5C(=O)C4)[C@@H](CCC(=O)NCC(=O)N1CCC[C@H]1C(=O)N[C@@H](CC(C)C)C(=O)NCC(=O)N[C@@H](Cc1ccccc1)C(=O)N[C@@H](CCCNC(=N)N)C(=O)N[C@H](C(=O)NCC(=O)N[C@@H](CCCCNC(=O)CCCN(C)c1ccc(/N=N/c2ccc4nc5ccc(N(CC)CC)cc5[n+](-c5ccccc5)c4c2)cc1)C(N)=O)C(C)C)[C@@H]3C — fluorescence activation (MMP9; cleavage, substrate; concentration not given, 24 h, 37 °C): 35%
COc1cc(-c2cnc3nc2NCCCNS(=O)(=O)c2cccc(c2)N3)ccc1F — thermal shift ΔTm (Ephrin type-B receptor 1 (EPHB1, Homo sapiens, UniProt P54762); differential scanning fluorimetry; 10 µM; higher = stronger binding): 4.3 K
FC(F)C(F)(F)c1nc2ccccc2[nH]1 — binding (Dual specificity protein phosphatase 3 (DUSP3, Homo sapiens, UniProt P51452); ligand-observed 19F NMR; concentration not given, added: DUSP3 4 or 8 µM): active
C[C@]12CCC[C@H]1[C@@H]1CCc3c(cc(I)c(O)c3I)[C@H]1CC2 — inhibition (Aldo-keto reductase family 1 member C1 (AKR1C1, Homo sapiens, UniProt Q04828); enzyme activity, inhibitor, absorbance; 100 µM, pH 9): 9.8%
NCCCC[C@H](NC(=O)[C@H](C/C=C/C[C@H](NC(=O)[C@@H]1CCCN1)C(=O)N[C@@H](CCCCN)C(=O)NCCCN)NC(=O)[C@@H]1CCCN1)C(=O)NCCCN — residence time ((CAG)10 RNA; SPR): 30 s
COc1ccc(NC(=O)CCCc2ccccc2)c(C)n1 — specific activity (CES3; substrate; 50 µM, pH 8, 37 °C, enzyme purity 3%): < 1 pmol/min/µg
Cc1ccc(NC(=O)c2c(C)oc3ccc(O)cc23)cc1 — binding (MYC Pu22 G-quadruplex DNA; surface plasmon resonance; concentration not given): no binding
[Ru+2].[Ru+2].c1cnc2c(c1)c1nc(-c3ccc(OCCOCCOCCOCCOc4ccc(-c5nc6c7cccnc7c7ncccc7c6[nH]5)cc4)cc3)[nH]c1c1cccnc12.c1cnc2c(c1)ccc1cccnc12.c1cnc2c(c1)ccc1cccnc12.c1cnc2c(c1)ccc1cccnc12.c1cnc2c(c1)ccc1cccnc12 — Kd (T4, DNA hairpin, hairpin, TTTT loop; BLI; pH 7.04, K+ 100 mM): 3.09 µM
CC(C)C[C@H](NC(=O)[C@H](CCCNC(=N)N)NC(=O)[C@@H](N)CS)C(=O)N[C@@H](CC(N)=O)C(=O)O — remaining activity (PPO3; enzyme activity, inhibitor; 25 µM): 86.7%
CCCN1C(=O)CCc2cc(NS(=O)(=O)Cc3ccc(C)cc3)ccc21 — potency relative to ABA (PYL1, with HAB1 (Arabidopsis thaliana, UniProt Q8VZS8); PYL1-HAB1 interaction, agonist, AlphaScreen; baseline: ABA): 2.4 fold
Cc1cccc(C)c1NC(=O)CC(C)NCc1ccccc1 (stereo not shown) — Hill coefficient (Sodium channel protein type 4 subunit alpha (SCN4A, Homo sapiens, UniProt P35499, F1586C); tonic block of sodium current, whole-cell patch clamp; HEK293; 0.1 Hz stimulation): 1.1 ± 0.1
COc1cc(C(=O)NC2CCC(N3CCN(CC4CCC5(CCCC5)C4)CC3)CC2)c(F)cc1Nc1ncc2c(n1)N(C1CCCC1(F)F)CC(F)(F)C(=O)N2C (stereo not shown) — inhibition (Macrophage colony-stimulating factor 1 receptor (CSF1R, Homo sapiens, UniProt P07333); cell-free assay, TR-FRET; 10 µM): 1.22%
COc1cc(OCCN2CCOCC2)cnc1-c1nc2cc(OC(F)(F)F)ccc2[nH]1 — RUNX1 binding (Core-binding factor subunit beta, with RUNX1 (Homo sapiens, UniProt Q13951); co-immunoprecipitation, inhibitor; SEM; 10 µM, 6 h): decreased
COc1ccc(-c2ocnc2-c2cc(Br)c(OC)c(OC)c2)cc1OCCCC(=O)NO — enzyme activity (Histone deacetylase 2 (HDAC2, Homo sapiens, UniProt Q92769); inhibitor, fluorogenic; IC50 and twice IC50; baseline: untreated): no effect
C#CCCN(CCCl)c1ccc(CCCC(=O)Nc2cccc(-c3cn4c(n3)C(C)CCC4)c2)cc1 (stereo not shown) — binding (T5, RNA repeat, CUG repeat (Homo sapiens); TAMRA click labeling gel; 18 h, pH 7.4, 37 °C, covalent): binds weakly

A few entries again:
CN(C)CCCNC(=N)c1ccc(C(=N)NCCCN(C)C)cc1 — Kd (T1, RNA repeat; ITC; pH 7.0, 25 °C, NaCl 1 mM): 3.8 µM
[Ru+2].[Ru+2].c1cnc2c(c1)c1nc(-c3ccc(OCCOCCOCCOCCOc4ccc(-c5nc6c7cccnc7c7ncccc7c6[nH]5)cc4)cc3)[nH]c1c1cccnc12.c1cnc2c(c1)ccc1cccnc12.c1cnc2c(c1)ccc1cccnc12.c1cnc2c(c1)ccc1cccnc12.c1cnc2c(c1)ccc1cccnc12 — Kd (T4, DNA hairpin, hairpin, TTTT loop; BLI; pH 7.04, K+ 100 mM): 3.09 µM
CC1=C(/C=C/C(C)=C/C=C/C(C)=C/C=O)C(C)(C)CCC1 — Hill coefficient (Cyclic nucleotide-gated channel alpha-1 (CNGA1, Bos taurus, UniProt Q00194); ion current, inhibitor, inside-out patch clamp; +100 mV, added: cGMP 2 mM): 1.4
COc1cc(F)c(C(C)C)cc1C1=C(CN2C(=O)O[C@H](c3cc(C(F)(F)F)cc(C(F)(F)F)c3)[C@@H]2C)CC(C)(C)CC1 — maximum inhibition (Cholesteryl ester transfer protein (Homo sapiens, UniProt P11597); enzyme activity; healthy male subjects, plasma; oral, 400 mg single dose; baseline: baseline): 83%
O=c1ccn(C2OC(COP(=O)(O)OP(=O)(O)OP(=O)(O)O)C(O)C2O)c(=O)[nH]1 (stereo not shown) — binding (UAP1 (Homo sapiens, UniProt Q16222); surface plasmon resonance; concentration not given): no binding
